Experimental data collected from several papers.
Parts stem from different laboratories: compare values within a part only. Positions count from the first letter of the parent shown.

Set 1
Target: Interferon regulatory factor 3, full length, phosphomimetic (IRF3, Homo sapiens, UniProt Q14653, residues 1-427, S386D/S396D/S398D/S402D/T404D/S405D)
Method: protein-binding microarray
Molecule type: double-stranded DNA, one strand shown
Medium: in vitro
Tested at: 2540 nM top
Notes: 60-bp whole probe
Added: salmon DNA 0.4 mg/ml
Baseline: random background probes
Direction: higher = stronger binding
All sequences stand within: GCCTAGCAC … GTCTTGATTCGCTTGACGCTGCTG
Construct (chain): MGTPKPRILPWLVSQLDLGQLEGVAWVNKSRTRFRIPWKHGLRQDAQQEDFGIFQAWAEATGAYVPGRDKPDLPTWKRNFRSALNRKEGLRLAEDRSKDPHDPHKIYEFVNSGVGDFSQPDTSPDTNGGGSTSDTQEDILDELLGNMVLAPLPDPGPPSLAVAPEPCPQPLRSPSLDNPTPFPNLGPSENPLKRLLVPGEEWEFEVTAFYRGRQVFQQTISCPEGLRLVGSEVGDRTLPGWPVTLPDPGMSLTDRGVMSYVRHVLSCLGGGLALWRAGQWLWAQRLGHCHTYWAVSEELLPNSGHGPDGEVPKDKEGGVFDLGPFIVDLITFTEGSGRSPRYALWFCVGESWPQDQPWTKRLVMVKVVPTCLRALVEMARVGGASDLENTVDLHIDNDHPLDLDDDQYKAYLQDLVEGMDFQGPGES
| Strand | fitted relative affinity |
| --- | --- |
| TGAGCTTACAATATAAAAGGGTGCTAG | -0.0264 z-score |
| AAGACTCTCTTGTCTGGATGTGTGCTA | -0.298 z-score |
| TCACTCTTCTTGCATCTGACTGTGCTA | 1.19 z-score |
| TTAGGACTGGGTATCGGCTAGTGCTAG | -0.639 z-score |
| ATTCCTCTCACCTCGGCCTCGTGCTAG | 1.44 z-score |
| GACGAACTGCTACTGCTGACGTGCTAG | -0.386 z-score |
| GACGGACTTCTTTTCCTGACGTGCTAG | 0.401 z-score |
| TTAGGACTGAACTTTCGGTTAGTGCTA | 1.67 z-score |
| CTGGATCTCAGACTGTGTCCGTGCTAG | -0.123 z-score |
| GACGGTCTCCTGTTCCTGACGTGCTAG | 0.962 z-score |
| TCAGGTTTCGGACTGGGTTAGTGCTAG | 4.17 z-score |
| GACGGACTGCTGATCCTGACGTGCTAG | -0.489 z-score |
| GAAGGACTGGACACTGGGGACGTGCTA | -0.825 z-score |
| GACGGTATCGGGCTTCGGGACGTGCTA | 0.971 z-score |
| GACTTTCTTTCAAATGAAGGAGTGCTA | 1.59 z-score |
| CTCAGGTAATATTTCCTGCTGTGCTAG | -0.12 z-score |
| GACGGACTGGGACTGGGAACGTGCTAG | -0.628 z-score |
| TCATTTCAGTTTCTCTTACTGTGCTAG | 4.35 z-score |
| TTAGGTATCCTACTGCTATAGTGCTAG | 2.78 z-score |
| GACGGTTTCGGACTGTGGACGTGCTAG | 4.74 z-score |
| TCAGATTTCAGGAATTGAACTGTGCTA | 0.523 z-score |
| TCATTCTTTTTTTTCTTACTGTGCTAG | 2.76 z-score |
| GCTCCTCTTTTTTTGGTAATGTGCTAG | 1.18 z-score |
| GTAGGTATCCTACTGCTTTAGTGCTAG | 2.58 z-score |
| GACGGACTGTTACTGCTGACGTGCTAG | -0.366 z-score |

Set 2
Target: Sal-like protein 4, full length isoform B (SALL4, Homo sapiens, UniProt Q9UJQ4-2, residues 1-616)
Method: universal PBM
Molecule type: double-stranded DNA, one strand shown
Medium: in vitro
Tested at: not given
Notes: 8-mer, flanks averaged, mean of replicates
Direction: higher = stronger binding
| Strand | E-score |
| --- | --- |
| ATAGGAGA | 0.0502 |
| ATTGAATA | 0.369 |
| CCCTCTAA | -0.127 |
| GCTGGATA | 0.123 |
| CGGTAGAG | -0.227 |
| CCATGGTC | -0.265 |
| AAGTAAAG | 0.147 |
| TATGTGCA | 0.228 |
| GGCACCCA | -0.295 |
| CGGACCCG | -0.344 |
| CGAAACGA | -0.0598 |
| CGAGCGGA | -0.281 |
| TAGAGCTA | -0.0628 |
| CGCAAAAG | -0.0913 |
| ACGGAAAG | -0.0165 |
| AGAGTGAT | 0.0579 |

Set 3
Target: ABI1, truncated, D143A, DHFR fusion (Arabidopsis thaliana)
Method: DHFR PCA, deep sequencing
Medium: yeast
Notes: methotrexate growth selection, single substitutions
Added: (+)-ABA 0.032 µM
Baseline: wild-type fitted maximum
Direction: higher = stronger binding
Parent: PYL1, truncated, DHFR fusion (Arabidopsis thaliana); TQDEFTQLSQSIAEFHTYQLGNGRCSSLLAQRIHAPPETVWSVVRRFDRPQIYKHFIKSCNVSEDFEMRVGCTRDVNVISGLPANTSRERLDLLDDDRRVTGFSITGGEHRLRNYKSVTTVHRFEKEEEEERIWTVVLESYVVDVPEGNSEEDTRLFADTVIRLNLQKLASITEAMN; partner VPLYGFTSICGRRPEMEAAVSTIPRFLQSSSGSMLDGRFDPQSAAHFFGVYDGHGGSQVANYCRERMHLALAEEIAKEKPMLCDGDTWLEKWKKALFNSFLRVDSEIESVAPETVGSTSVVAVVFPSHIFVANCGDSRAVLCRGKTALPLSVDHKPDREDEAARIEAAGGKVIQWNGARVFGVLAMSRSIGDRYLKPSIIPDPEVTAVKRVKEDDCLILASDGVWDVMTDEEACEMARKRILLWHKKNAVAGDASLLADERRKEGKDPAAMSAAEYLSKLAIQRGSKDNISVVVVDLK
| Variant | relative binding score |
| --- | --- |
| T135Y | -3.06% |
| S59L | 1.05% |
| E64V | 6.14% |
| G148L | -6.18% |
| H110I | 5.82% |
| K168T | 3.88% |
| L94T | 0.292% |
| E129S | 38.5% |
| M176V | 6.9% |
| Q10I | 6.14% |
| D65A | 4.81% |
| E14H | -9.33% |
| A84R | 2.37% |
| L29G | 3.75% |
| V62D | 3.84% |
| T101F | 67.3% |
| D96Q | -1.82% |

Set 4
Target: CCNA2, cyclin fold, Cln2 fusion (human)
Method: yeast growth competition, sequencing
Medium: yeast
Notes: strong parent motif
Baseline: not given
Direction: higher = stronger binding
Parent: CDKN1A docking peptide (human); SKACRRLFGPVDS; partner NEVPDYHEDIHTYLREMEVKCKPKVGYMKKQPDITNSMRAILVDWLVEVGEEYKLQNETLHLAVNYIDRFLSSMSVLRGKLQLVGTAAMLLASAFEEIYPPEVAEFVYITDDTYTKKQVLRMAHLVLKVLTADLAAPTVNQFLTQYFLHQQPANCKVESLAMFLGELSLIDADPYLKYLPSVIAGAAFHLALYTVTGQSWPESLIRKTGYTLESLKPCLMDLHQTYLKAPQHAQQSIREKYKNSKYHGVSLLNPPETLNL
| Variant | normalised enrichment score |
| --- | --- |
| SKACRRLPGPVDS [F8P] | 0.31 |
| SKACRRDFGPVDS [L7D] | -0.0215 |
| SKAYRRLFGPVDS [C4Y] | 3.14 |
| SKACRRLFIPVDS [G9I] | 5.37 |
| SKACRRLFKPVDS [G9K] | 5.18 |
| SKACRRYFGPVDS [L7Y] | 0.878 |
| SKACRRLFGPFDS [V11F] | 5.43 |
| SKACWRLFGPVDS [R5W] | 0.744 |
| SKACRRLFGLVDS [P10L] | 4.52 |
| SKACRRSFGPVDS [L7S] | 0.225 |
| SKACTRLFGPVDS [R5T] | 1.49 |
| SKACRRLFGPHDS [V11H] | 5.52 |
| SKACRRLGGPVDS [F8G] | 0.482 |
| SKAERRLFGPVDS [C4E] | 0.245 |

Some of these lines once more (set 3):
| Variant | relative binding score |
| --- | --- |
| K168T | 3.88% |
| L94T | 0.292% |
| E129S | 38.5% |
| M176V | 6.9% |
